Literature values, collected from citations in different studies.
Compare with care: the assays were run in different laboratories. ± marks the error that the study gave.

SMILES | cell line | assay | setting | scale | endpoint | result
N=S(=O)(c1ccccc1)N1CCCCC1 (centres unmarked) | Caco-2 |  |  | baseline: Papp B-A over Papp A-B | efflux ratio | 0.59
CC(C)=CCC[C@](C)(O)[C@H]1CC[C@]2(C)[C@@H]1[C@H](O)C[C@@H]1[C@@]3(C)CC[C@H](O)C(C)(C)[C@@H]3CC[C@]12C | human keratinocytes | cytotoxicity |  |  | NOAEL | 4 µM
CC(=O)O[C@H]1C2=C(C(=O)C(OC(=O)c3ccc([N+](=O)[O-])cc3)=C(C(C)C)C2=O)[C@@]2(C)CCCC(C)(C)[C@@H]2[C@@H]1O | MOLT-3 |  |  |  | GI50 | 5 to 10 µM
CCOC(=O)CNC(=O)CN1C(=O)S/C(=C\c2ccc(C)cc2)C1=O | Caco-2 |  | concentration not given |  | cytotoxicity | not toxic
COc1cncc(-c2cc(F)cc(CNC(=O)c3cc(N4CC[C@@](C#N)(C5CC5)C4=O)cc(C)n3)c2)c1 | MDA-MB-231 | cytotoxicity |  |  | CC50 | 0.393 µM
O=C1c2ccccc2-c2c1c1ccc([N+](=O)[O-])cc1c(=O)n2C[C@H](O)CO | UACC-62 | cell growth | melanoma cancer panel |  | GI50 | 0.098 µM
CC(=O)O[C@H]1C2=C(C(=O)C(OC(=O)c3ccc(Cl)cc3)=C(C(C)C)C2=O)[C@@]2(C)CCCC(C)(C)[C@@H]2[C@@H]1O | MCF7 | cell growth |  |  | GI50 | ≤ 5 µM
CCOC(=O)C(CC)NC(=O)CN1C(=O)S/C(=C\c2ccc(C)cc2)C1=O (centres unmarked) | Caco-2 |  | concentration not given |  | cytotoxicity | not toxic
COc1ccc(Oc2ccc([C@@H](C)N(C)c3ncc4c(N)nc(N)nc4n3)cc2)cc1 | HEK293 |  | concentration not given |  | activity | inactive
CC(=O)O[C@@H]1C[C@H]2C(C)(C)[C@H](O)CC[C@]2(C)[C@H]2CC[C@]34C[C@]3(CC[C@H]4[C@@H](C)C[C@@H](O)[C@H](O)C(C)(C)O)[C@@]21C | KB-C2 colchicine-resistant |  | concentration not given |  | cytotoxicity | toxic
CC(=O)O[C@H]1C2=C(C(=O)C(O)=C(C(C)C)C2=O)[C@@]2(C)CCCC(C)(C)[C@@H]2[C@@H]1O | MCF7 | cell growth |  |  | GI50 | 5 to 10 µM
Cn1c2cc([S+](C)[O-])sc2c2cnn(Cc3cccc(N)c3)c(=O)c21 (centres unmarked) | well-differentiated RPE cells |  | concentration not given |  | toxicity | not toxic
CC(=O)O[C@@H]1[C@@H](OC(C)=O)C2=C(C(=O)C(O)=C(C(C)C)C2=O)[C@@]2(C)CCCC(C)(C)[C@H]12 | MEL1 |  |  |  | GI50 | 10 to 30 µM
Cc1cc(N2CC[C@](C#N)(C3(C)CC3)C2=O)cc(C(=O)NCc2cc(F)cc(-c3cnn(C)c3)c2)n1 | ARPE-19, MDA-MB-231 |  | up to 2 µM |  | growth inhibition | no inhibition
CNc1c(C)n(C)n(-c2ccccc2)c1=O | primary human hepatocytes | refers to: CYP2B6 | concentration not given | baseline: untreated | protein level | increased
CC(=O)O[C@H]1C2=C(C(=O)C(OC(=O)c3ccc(C)cc3)=C(C(C)C)C2=O)[C@@]2(C)CCCC(C)(C)[C@@H]2[C@@H]1O | MCF7 | cell growth |  |  | GI50 | ≤ 5 µM
O=C1c2ccccc2-c2c1c1ccc([N+](=O)[O-])cc1c(=O)n2C[C@H](O)[C@@H](O)[C@H](O)[C@H](O)CO | SN12C | cell growth | renal cancer panel |  | GI50 | 17.7 µM
COCCN1CCn2cc(C(=O)NCc3ccc(F)cc3F)c(=O)c(O)c2C1=O | HOS | ATP level, 50% ATP reduction |  |  | CC50 | 138 ± 8.5 µM
O=C(OCc1cccc(O)c1O)c1ccc(O)c(CO)c1 | cultured cells |  | concentration not given |  | cytotoxicity | not toxic
CC(C)N1CCn2cc(C(=O)NCc3ccc(F)cc3F)c(=O)c(O)c2C1=O | HOS | ATP level, 50% ATP reduction |  |  | CC50 | 163 ± 8 µM
CC(=O)OC1=C(C(C)C)C(=O)C2=C(C1=O)[C@@]1(C)CCCC(C)(C)[C@@H]1[C@H](OC(C)=O)[C@H]2OC(C)=O | MCF7 | cell growth |  |  | GI50 | 5 to 10 µM
O=C(NCc1ccc(F)cc1F)c1cn2ccn(CCCCCO)c(=O)c2c(O)c1=O | HOS | ATP level, 50% ATP reduction |  |  | CC50 | > 250 µM
COc1ccc(-c2cccc(S(=O)(=O)N[C@@H](Cc3cccc(C(=N)N)c3)C(=O)N3CCN(C(=O)NC4CCCCC4)CC3)c2)c(OC)c1 | HIEC human intestinal epithelial cells |  | concentration not given |  | extracellular hydrogen peroxide | not detected
COCCCn1ccn2cc(C(=O)NCc3ccc(F)cc3F)c(=O)c(O)c2c1=O | HOS | ATP level, 50% ATP reduction |  |  | CC50 | > 250 µM
Cc1cc(N2CC[C@@](C#N)(C3CC3)C2=O)cc(NC(=O)Cc2ccccc2)n1 | ARPE-19 | cytotoxicity |  |  | CC50 | 0.672 µM
O=C(NCc1ccc(F)cc1F)c1cn2ccn(CCCCO)c(=O)c2c(O)c1=O | HOS | ATP level, 50% ATP reduction |  |  | CC50 | > 250 µM
O=C(Cn1cc(CNC(=O)c2c3ccccc3nc3ccccc23)nn1)Nc1cccc(Br)c1 | HDF |  |  | no toxicity up to value | cytotoxicity | > 200 µM
COCCCCCCN1CCn2cc(C(=O)NCc3ccc(F)cc3F)c(=O)c(O)c2C1=O | HOS | ATP level, 50% ATP reduction |  |  | CC50 | > 250 µM
CC(C)C1=C(O)C(=O)C2=C(C1=O)[C@H](O)[C@@H](O)[C@H]1C(C)(C)CCC[C@]21C | HCT-116 |  |  |  | GI50 | > 30 µM

Some of these lines once more:
SMILES | cell line | assay | setting | scale | endpoint | result
O=C(Cn1cc(CNC(=O)c2c3ccccc3nc3ccccc23)nn1)Nc1cccc(Br)c1 | HDF |  |  | no toxicity up to value | cytotoxicity | > 200 µM
CCOC(=O)CNC(=O)CN1C(=O)S/C(=C\c2ccc(C)cc2)C1=O | Caco-2 |  | concentration not given |  | cytotoxicity | not toxic
COc1cncc(-c2cc(F)cc(CNC(=O)c3cc(N4CC[C@@](C#N)(C5CC5)C4=O)cc(C)n3)c2)c1 | MDA-MB-231 | cytotoxicity |  |  | CC50 | 0.393 µM
